# Assay results pooled from the literature.
# Lines come from different studies, so protocols differ. “And” joins repeats or separate records; there may be more than shown.
# IL1RL2: Interleukin-1 receptor-like 2 (IL1RL2, Homo sapiens, UniProt Q9HB29)
# Sequence of UniProt Q16539 (whole entry, looked up): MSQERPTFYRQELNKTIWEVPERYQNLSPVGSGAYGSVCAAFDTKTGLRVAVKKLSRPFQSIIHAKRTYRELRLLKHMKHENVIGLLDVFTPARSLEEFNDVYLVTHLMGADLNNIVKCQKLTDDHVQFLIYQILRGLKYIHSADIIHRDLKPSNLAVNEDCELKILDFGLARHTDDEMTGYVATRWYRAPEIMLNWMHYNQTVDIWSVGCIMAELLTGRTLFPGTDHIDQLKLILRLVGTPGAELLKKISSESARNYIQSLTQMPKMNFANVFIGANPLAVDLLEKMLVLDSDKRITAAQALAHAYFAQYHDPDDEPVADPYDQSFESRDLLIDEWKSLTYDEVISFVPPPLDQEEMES
# Sequence of UniProt P06493 (whole entry, looked up): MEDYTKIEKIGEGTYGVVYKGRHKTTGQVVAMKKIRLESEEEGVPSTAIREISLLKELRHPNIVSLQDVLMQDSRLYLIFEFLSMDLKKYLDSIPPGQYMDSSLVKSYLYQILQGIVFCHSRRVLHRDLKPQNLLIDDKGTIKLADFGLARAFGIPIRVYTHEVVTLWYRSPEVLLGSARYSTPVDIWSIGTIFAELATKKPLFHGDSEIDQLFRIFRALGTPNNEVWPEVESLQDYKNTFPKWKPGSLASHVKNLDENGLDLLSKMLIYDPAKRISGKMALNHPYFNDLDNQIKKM
# Sequence of UniProt Q9HB29 (whole entry, looked up): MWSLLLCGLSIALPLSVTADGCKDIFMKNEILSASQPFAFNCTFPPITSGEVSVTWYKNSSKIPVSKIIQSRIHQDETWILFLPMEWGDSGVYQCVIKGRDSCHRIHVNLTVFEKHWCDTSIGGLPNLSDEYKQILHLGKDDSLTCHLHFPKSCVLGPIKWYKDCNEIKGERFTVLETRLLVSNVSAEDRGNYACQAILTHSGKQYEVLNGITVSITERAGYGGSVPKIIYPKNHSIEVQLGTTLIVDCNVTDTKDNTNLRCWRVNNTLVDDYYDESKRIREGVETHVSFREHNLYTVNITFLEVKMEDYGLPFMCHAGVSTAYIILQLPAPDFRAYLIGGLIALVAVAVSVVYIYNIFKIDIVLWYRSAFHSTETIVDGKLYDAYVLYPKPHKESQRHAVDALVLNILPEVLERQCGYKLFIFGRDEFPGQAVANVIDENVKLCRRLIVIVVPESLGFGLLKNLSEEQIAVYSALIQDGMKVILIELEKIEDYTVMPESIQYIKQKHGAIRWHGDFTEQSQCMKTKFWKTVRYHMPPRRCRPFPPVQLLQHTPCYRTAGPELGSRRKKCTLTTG
# Sequence of UniProt P14091 (whole entry, looked up): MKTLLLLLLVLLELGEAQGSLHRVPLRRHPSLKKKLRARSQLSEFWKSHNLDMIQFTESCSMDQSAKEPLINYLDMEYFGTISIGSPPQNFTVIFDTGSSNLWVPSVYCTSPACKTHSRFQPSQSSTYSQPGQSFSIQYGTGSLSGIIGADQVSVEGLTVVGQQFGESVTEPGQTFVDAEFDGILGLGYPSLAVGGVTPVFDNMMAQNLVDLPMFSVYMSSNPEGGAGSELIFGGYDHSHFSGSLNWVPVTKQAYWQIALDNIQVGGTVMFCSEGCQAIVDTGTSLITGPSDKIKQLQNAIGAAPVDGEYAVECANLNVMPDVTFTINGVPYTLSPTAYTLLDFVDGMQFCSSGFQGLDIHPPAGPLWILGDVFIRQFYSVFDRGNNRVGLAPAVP
# Sequence of UniProt P45983 (whole entry, looked up): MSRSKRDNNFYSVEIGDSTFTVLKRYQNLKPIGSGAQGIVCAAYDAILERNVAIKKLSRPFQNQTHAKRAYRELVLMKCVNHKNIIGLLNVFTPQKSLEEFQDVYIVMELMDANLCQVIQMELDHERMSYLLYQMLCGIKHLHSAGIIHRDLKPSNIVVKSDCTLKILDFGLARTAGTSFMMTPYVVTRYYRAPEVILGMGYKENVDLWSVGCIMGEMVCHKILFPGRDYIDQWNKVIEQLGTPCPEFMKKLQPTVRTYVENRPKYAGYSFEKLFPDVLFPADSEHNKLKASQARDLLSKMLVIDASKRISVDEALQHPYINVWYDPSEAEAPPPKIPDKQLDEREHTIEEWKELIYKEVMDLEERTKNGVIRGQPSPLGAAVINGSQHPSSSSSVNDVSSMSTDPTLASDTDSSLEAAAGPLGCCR
# Sequence of UniProt O75417 (whole entry, looked up): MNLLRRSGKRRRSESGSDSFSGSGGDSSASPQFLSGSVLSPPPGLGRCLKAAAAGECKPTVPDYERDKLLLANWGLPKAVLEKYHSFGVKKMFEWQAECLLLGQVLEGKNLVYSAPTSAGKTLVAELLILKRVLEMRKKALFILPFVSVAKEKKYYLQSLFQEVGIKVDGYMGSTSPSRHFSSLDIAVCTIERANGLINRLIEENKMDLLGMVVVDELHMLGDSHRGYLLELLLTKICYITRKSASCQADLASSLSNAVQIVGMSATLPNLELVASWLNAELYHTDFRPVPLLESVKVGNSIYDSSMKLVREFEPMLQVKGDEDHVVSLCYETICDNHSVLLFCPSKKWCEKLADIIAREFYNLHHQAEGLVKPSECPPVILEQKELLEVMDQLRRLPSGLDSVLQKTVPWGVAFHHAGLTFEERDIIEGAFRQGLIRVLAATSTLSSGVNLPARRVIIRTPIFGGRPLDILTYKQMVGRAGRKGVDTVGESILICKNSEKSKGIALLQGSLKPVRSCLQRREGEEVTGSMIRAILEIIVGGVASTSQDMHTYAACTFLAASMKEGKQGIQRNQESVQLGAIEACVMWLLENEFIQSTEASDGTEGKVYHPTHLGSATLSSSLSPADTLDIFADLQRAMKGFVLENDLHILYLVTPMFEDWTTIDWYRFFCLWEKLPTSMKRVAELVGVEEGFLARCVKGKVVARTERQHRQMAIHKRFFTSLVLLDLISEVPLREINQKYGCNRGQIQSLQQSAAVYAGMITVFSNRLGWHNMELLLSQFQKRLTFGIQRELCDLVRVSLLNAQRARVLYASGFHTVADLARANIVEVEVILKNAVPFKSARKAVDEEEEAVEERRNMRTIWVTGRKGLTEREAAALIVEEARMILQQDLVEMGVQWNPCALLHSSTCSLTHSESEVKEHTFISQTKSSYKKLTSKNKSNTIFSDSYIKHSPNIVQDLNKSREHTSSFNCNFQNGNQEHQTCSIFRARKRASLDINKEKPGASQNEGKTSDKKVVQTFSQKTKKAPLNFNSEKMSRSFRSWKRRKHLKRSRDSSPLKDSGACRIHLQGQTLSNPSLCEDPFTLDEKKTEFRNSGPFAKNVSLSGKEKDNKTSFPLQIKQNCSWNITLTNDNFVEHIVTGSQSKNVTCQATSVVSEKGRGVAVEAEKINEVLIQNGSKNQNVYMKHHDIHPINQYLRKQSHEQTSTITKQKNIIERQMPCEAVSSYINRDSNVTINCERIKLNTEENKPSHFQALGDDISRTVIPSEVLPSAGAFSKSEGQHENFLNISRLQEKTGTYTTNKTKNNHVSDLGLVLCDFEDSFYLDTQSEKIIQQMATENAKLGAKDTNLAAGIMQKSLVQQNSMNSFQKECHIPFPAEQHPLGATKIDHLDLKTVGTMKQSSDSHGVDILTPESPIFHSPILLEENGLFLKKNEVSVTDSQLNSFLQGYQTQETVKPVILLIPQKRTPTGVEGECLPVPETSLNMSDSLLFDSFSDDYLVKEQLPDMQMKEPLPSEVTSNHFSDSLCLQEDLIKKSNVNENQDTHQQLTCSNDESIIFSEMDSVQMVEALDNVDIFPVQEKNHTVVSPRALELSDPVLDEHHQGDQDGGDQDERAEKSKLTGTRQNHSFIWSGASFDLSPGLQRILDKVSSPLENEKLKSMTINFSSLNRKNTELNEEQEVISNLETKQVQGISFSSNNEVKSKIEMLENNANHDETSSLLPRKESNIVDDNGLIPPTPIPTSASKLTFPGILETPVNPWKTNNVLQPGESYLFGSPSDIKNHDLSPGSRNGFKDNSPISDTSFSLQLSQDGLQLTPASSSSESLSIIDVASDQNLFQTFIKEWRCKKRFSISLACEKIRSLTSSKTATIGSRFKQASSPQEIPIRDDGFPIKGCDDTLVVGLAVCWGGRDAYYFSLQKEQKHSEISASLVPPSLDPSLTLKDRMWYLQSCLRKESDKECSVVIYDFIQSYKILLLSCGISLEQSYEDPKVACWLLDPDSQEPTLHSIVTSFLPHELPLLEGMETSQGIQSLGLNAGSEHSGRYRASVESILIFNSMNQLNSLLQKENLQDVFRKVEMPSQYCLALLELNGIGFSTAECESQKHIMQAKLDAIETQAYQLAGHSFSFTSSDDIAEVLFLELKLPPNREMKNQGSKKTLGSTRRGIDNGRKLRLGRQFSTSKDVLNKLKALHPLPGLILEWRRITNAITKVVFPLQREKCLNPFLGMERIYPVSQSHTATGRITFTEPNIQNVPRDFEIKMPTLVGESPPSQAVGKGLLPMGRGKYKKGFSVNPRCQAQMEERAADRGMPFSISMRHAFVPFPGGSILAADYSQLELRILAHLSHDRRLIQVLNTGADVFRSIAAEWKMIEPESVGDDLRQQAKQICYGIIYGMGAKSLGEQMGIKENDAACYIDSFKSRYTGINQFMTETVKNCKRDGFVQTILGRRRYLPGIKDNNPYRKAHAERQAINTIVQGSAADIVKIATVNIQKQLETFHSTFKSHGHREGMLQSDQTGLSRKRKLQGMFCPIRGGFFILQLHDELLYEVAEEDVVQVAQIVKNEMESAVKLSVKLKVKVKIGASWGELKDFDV
# Sequence of UniProt Q9BY41 (whole entry, looked up): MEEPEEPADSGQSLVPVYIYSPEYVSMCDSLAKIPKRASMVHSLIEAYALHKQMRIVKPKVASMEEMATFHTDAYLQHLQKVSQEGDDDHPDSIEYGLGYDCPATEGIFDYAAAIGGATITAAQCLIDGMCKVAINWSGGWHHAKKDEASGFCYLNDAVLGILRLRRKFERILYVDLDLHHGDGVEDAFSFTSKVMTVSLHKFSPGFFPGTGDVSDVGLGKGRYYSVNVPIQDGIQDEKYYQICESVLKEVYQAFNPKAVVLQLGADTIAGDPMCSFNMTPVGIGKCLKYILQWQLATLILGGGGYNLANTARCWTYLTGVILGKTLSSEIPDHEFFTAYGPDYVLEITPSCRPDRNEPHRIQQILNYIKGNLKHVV
target,assay,test system,setting,how to read,remaining activity,SMILES
"Cathepsin E (CTSE, Homo sapiens, UniProt P14091)","enzyme activity, inhibitor",,10 µM,,105%,C[C@](C(=O)NC1CCOCC1)(c1cncnc1)N(C(=O)[C@H](F)Cl)c1ccc(OC(F)(F)Cl)cc1
IL1RL2,"reporter gene (SEAP), inhibitor, HEK-Blue IL-36R reporter",HEK-Blue IL-36R cells,"0.046 µM, 6 h, added: IL36G 0.01 ng/mL",,91.3%,N#Cc1cnc2sc(C(=O)O)cc2c1N1CCc2[nH]nc(C(=O)N[C@@H](CC(=O)NCCOCCN3CCOCC3)c3cccc(Br)c3)c2C1
"MAPK14 (Homo sapiens, UniProt Q16539)","enzyme activity, inhibitor",,"0.5487 µM, unit not given",relative to: vehicle,1.06 and 1.27 and 0.959,COC(=O)[C@@]1(C)C=C(C(=O)Nc2cccc(C(=O)Nc3ccc(Nc4nccc(-c5cccnc5)n4)c(C)c3)c2)C(=O)CC1
phosphorylase kinase,enzyme activity,,10 µM,,56%,Cc1cccc(-c2ccc3nc(NC(=O)C4CCCCC4)nn3c2)c1
"MAPK8 (Homo sapiens, UniProt P45983)","kinase activity, inhibitor",,"4.938 µM, unit not given, added: 10 mM glutathione",relative to: no inhibitor,0.0652,C=C1C[C@@]2(C(=O)OC)C=C(C(=O)Nc3cccc(C(=O)Nc4ccc(Nc5nccc(-c6cccnc6)n5)c(C)c4)c3)C(=O)[C@@H]1C2
"DNA polymerase theta, helicase domain (POLQ, Homo sapiens, UniProt O75417)","ATPase activity, ADP-Glo",,0.06 µM,relative to: 0 µM cpd,35%,COc1ccccc1-c1ccncc1C(=O)Nc1nnc(OCc2ccc(Cl)cc2)s1
"PRKDC (Homo sapiens, UniProt P78527)","enzyme activity, inhibitor, radiometric",,0.1 µM,,83%,CC(=O)N1c2ccc(-c3ccc(CNC(=O)c4cn5cc(-c6cnc(N)nc6)nc(N6CCOCC6)c5n4)cc3)cc2CC[C@@H]1C
MLCK human,kinase activity,,0.03 µM,relative to: control,102%,COc1ccc(NC(=O)Nc2ccc3c(c2)C(=O)N(C(C)CO)CC(C)C(CN(C)Cc2ccc4c(c2)OCO4)O3)cc1 (stereo not drawn)
phosphorylase kinase,enzyme activity,,10 µM,,69%,Cc1cccc(-c2ccc3nc(NC(=O)C4CCOCC4)nn3c2)c1
IL1RL2,"reporter gene (SEAP), inhibitor, HEK-Blue IL-36R reporter",HEK-Blue IL-36R cells,"33.33 µM, 6 h, added: IL-36β 0.3 ng/mL",,9.6%,CC(C)[C@@H]1NC(=O)[C@H](Cc2ccccc2)NC(=O)CSC[C@@H](C(N)=O)NC(=O)[C@H](CCC(=O)O)NC(=O)[C@H](CO)NC(=O)[C@H](Cc2c[nH]c3cccc(Cl)c23)NC(=O)[C@H](C2CCCCC2)NC(=O)[C@H](C(C)C)NC(=O)[C@H](Cc2ccc(O)cc2)NC(=O)[C@H](CC(=O)O)NC(=O)[C@H](Cc2c[nH]c3ccccc23)NC(=O)[C@H](Cc2ccc(N)nc2)NC(=O)[C@H](Cc2c[nH]c3ccc(Cl)cc23)NC(=O)[C@H](CCC(=O)O)NC1=O
"HDAC8 (Homo sapiens, UniProt Q9BY41)","enzyme activity, inhibitor",,10 µM,,91%,COC(=O)c1ccc2c(c1)nc(NC(=O)c1ccccc1)n2CCCc1ccccc1
"Cyclin-dependent kinase 1, with cyclin E (CDK1, Homo sapiens, UniProt P06493)","kinase activity, inhibitor, ProQinase kinase profiling",,25 µM,relative to: control,102% and 95%,COCC12C(=O)NC3C4(C(OC)CC1O)C1CC5(O)C(OC)C(O)C(OC(C)=O)(C1C5OC(=O)c1ccccc1)C3(O)C(OC)C24 (stereo not drawn)
